Experimental data collected from several papers.
Protocols differ between the studies behind these lines.

SMILES	assay	system	conditions	how to read	measurement	result
CN1CC[C@@H](c2c(O)cc(O)c3c(=O)cc(-c4ccc(C(F)(F)F)cc4Cl)oc23)[C@@H]1CO	refers to: Dizziness	B-cell malignancies or AML	oral, 100 mg, continuous dosing	–	patients with adverse event	12.5%
COc1ccnc(C(=O)N[C@H]2COC(=O)[C@H](Cc3ccccc3)[C@@H](OC(=O)C(C)C)[C@H](C)OC2=O)c1OCOC(=O)C(C)C	aerobic dark soil incubation	clay loam soil	20 °C, persistence endpoint	–	DT50	0.8 days
C[C@]1(CO)Cc2ncn(-c3ccc(C#N)c(Cl)c3)c2C(=O)O1	–	healthy Japanese subjects	dose not given, single dose, all doses	–	subjects with drug-related TEAE	11.1%
O=c1c2cc(Cl)c(CO)cc2[nH]c(=S)n1Cc1cncnc1	–	mouse, plasma	intravenous	–	clearance	115 mL/min/kg
CC(C)CC(=O)OC[C@H]1O[C@@](C#N)(c2ccc3c(N)ncnn23)[C@H](O)[C@@H]1O	plasma protein binding	mouse plasma	9 µM, time not given	–	recovery	94.1%
COc1cc2c(Oc3ccc4[nH]c(C)cc4c3F)ccnc2cc1OCC1(N)CC1	–	paediatric refractory sarcoma patients	12 mg	–	Cholesterol elevation incidence	18.2%
COc1ccc2nc3cc(Cl)ccc3c(Nc3cc(CN4CCCC4)c(O)c(CN4CCCC4)c3)c2n1	–	mouse, blood	intraperitoneal, 28 mg/kg	–	platelet count	126 10⁹/L
CO[C@H]1C[C@@H]2CC[C@@H](C)[C@@](O)(O2)C(=O)C(=O)N2CCCC[C@H]2C(=O)O[C@H]([C@H](C)C[C@@H]2CC[C@@H](OC(=O)NCCOCCOCCOCCOCCOCCOCCOCCOCCC(=O)N3CCc4cc(Cn5nc(-c6ccc7oc(N)nc7c6)c6c(N)ncnc65)ccc4C3)[C@H](OC)C2)C[C@@H](O)[C@H](C)/C=C(\C)[C@@H](O)[C@@H](OC)C(=O)[C@H](C)C[C@H](C)/C=C/C=C/C=C/1C	phase 1 dose escalation, refers to: decreased appetite	advanced solid tumour patients	intravenous, 12 mg weekly, grade ≥3	–	TRAE incidence	8.3%
CCC[C@@](N)(CO)CCc1ccc(OCCCCCC(C)C)cc1	–	hound dogs, male	oral, 10 mg/kg, capsule, fed state, geometric mean	–	AUC(0-last)	12.6 µM·h
CCCCCCCCCCCCCCCC(=O)N[C@@H](CCC(=O)NCCCC[C@H](NC(=O)[C@H](CC(=O)O)NC(=O)[C@H](CO)NC(=O)[C@@H](NC(=O)[C@H](Cc1ccccc1)NC(=O)[C@@H](NC(=O)CNC(=O)[C@H](CCC(N)=O)NC(=O)[C@H](CO)NC(=O)[C@@H](N)Cc1c[nH]cn1)[C@@H](C)O)[C@@H](C)O)C(=O)N[C@@H](CO)C(=O)N[C@@H](CCC(=O)O)C(=O)N[C@@H](Cc1ccc(O)cc1)C(=O)N[C@@H](CC(C)C)C(=O)N[C@@H](CC(=O)O)C(=O)N[C@@H](CO)C(=O)N[C@@H](CCC(=O)O)C(=O)N[C@@H](CCCNC(=N)N)C(=O)N[C@@H](C)C(=O)N[C@@H](CCCNC(=N)N)C(=O)N[C@@H](CC(=O)O)C(=O)N[C@@H](Cc1ccccc1)C(=O)N[C@H](C(=O)N[C@@H](C)C(=O)N[C@@H](Cc1c[nH]c2ccccc12)C(=O)N[C@@H](CC(C)C)C(=O)N[C@@H](CCC(=O)O)C(=O)N[C@@H](C)C(=O)NCC(=O)NCC(=O)O)C(C)C)C(=O)O	–	human, CrCl < 20 mL/min	sc, 100 µg single dose	–	abdominal distension	0%
COc1ccc([C@@H](O)c2cc(-c3ncnc4cc(N5CCOCC5)ccc34)c(F)cc2Cl)nn1	–	patients, advanced solid tumours	oral, 400 mg twice daily, treatment-emergent, with: avelumab	–	metabolism, nutrition disorders incidence	4%
Cc1cc(C)c(CNC(=O)c2cc(Cl)c3c(c2C)O[C@@](C)([C@H]2CC[C@H](N(C)C)CC2)O3)c(=O)[nH]1	–	human, relapsed/refractory NHL	treatment-related TEAEs, grade 5	–	Coagulopathy incidence	0%
O=C(Nc1ccccc1)C1CCN(C(=O)Oc2cccnc2)CC1	Bond-Lader VAS	healthy women	oral, 20 mg	baseline: pre-dose baseline, direction not given	change in Happy-Sad score	-16
